Results of several laboratories.
Parts stem from different laboratories: compare values within a part only.

Series 1 — technique: RNA Bind-n-Seq; molecule type: RNA; sample: in vitro; tested at: not given; baseline: input RNA pool; direction: higher = stronger binding
Target: RING finger protein unkempt homolog, zinc fingers 1-6, GST-SBP tag (UNK, Homo sapiens, UniProt Q9C0B0, residues 30-357)
UniProt Q9C0B0, sequence (30-357, looked up): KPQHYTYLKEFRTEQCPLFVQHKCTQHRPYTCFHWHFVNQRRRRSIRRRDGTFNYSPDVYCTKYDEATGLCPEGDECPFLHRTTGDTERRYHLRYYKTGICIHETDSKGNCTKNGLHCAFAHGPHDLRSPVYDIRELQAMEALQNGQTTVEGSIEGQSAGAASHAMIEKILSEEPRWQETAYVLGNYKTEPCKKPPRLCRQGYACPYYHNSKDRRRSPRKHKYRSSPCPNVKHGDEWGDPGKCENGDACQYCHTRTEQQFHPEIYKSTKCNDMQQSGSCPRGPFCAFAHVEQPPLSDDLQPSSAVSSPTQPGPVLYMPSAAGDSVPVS
Setting: RNA with constant flanks, human and mouse sites, ends assumed
Constant ends, left off below: GGGAGUUCUACAGUCCGACGAUC … CAACAGAGGAUUGAGCAUCA
| Strand | bound/input enrichment |
| --- | --- |
| GAUGGGCCUAUUUGCUUGGUGCUGGCACCAACUCGAGAACUGGCACAGCAGGUGCAGCAAGUGGCUGCUGAAUAUUGUCGAGCUUGUCGCUUGAAGUCUACUUGCAUCUAUGGUGGUGCU | 0.222 ratio |
| UUAAAAAAAUCACUAAAUUGUGCCUAAAGAACAUAACUGCCAUAUUAAUGUUUUUAUUUCUAUAGUAUUAGAAAAACAUUUAAUACUUGUAGCAUUGAUGUGUUGAUUUGAUACCAGUUG | 0.275 ratio |
| GUUUAGUAUUGUAGUUAGGCUGUUUGUGUGUAUGCAUGUGUAUGUGUGUAUGAGUGCGUUUGUGUGUGACCAAAACAGUAACUGGCAAACGUAACAACAGGAAAUUGUAGGGCAGGGUCU | 4.2 ratio |
| AUCUUCCUCGUUUCCUCCACCCAAUUCUCAUCUCCUUUAUUAAUGCAGAUCCCAGAUAUAUUUUAUCAAGAAAUUUUGUAGCAUAUAUUUGUGUUGUUUUAUUCGUGGUCAUAGUUGCUU | 0.653 ratio |
| CCACCUCCUAUCAGUCCUACCCAGUUGAGUGAUGUGUCCUCCCCACGAUCAAUAACAUCUACACCACUUUCAGGAAAGGAGUCAGUAUUUUUUGCUGAAGCGCCCUUUAAGGCUGAGAUC | 0.515 ratio |
| GAGAUGGAGAUACAAAUGAAAUCAAAAAAGCUUCCAAUUACGCGAAAGUUUUAUGCCUUUUAUCAUGCACCAAUUGUAAAAUUCUGGUUUAACACGUUGGCAUAUUUAGGAUUUCUGAUG | 0.68 ratio |
| GAUGAAAUCAACUUGCCCGAUAUGGAUAAAUACGGCACACAGAGAGUCAUCUCCUUCAUCAGACAGAUGGUGGAGCAUGGAGGCUUCUAUCGUACCUCAGACCAAACGUGGGUAAAGCUA | 0.157 ratio |
| UUUUUAUUGUACAUUUAUUUUUUGUCCUUAUAUACUGGAGUGUGAUCCAAGUUGUACAUGAAUCAAAAAGAUGGUGUUACAUUUGUAUUACGCUGGGAAUUCUUGCUGGAGGGAUUGGAG | 1.13 ratio |
| UCCCCAGCAGGUGGUGGGCUACUUCAAUACAUACAAACUCCUUCCUCCCAAGAACCCAGCCACGAAACAACAGAAGCAGUGACCACUUCAACAGAAUUCUUUUGUGUUAUGUGGAGCAAU | 0.511 ratio |
| AAAAGAUCCAGAAGGAUUUGUUGGGCAUCCAGUAAAUGCAUUCAAAUUAAUGAAACGUCUGAAUACUGAGUGGAGUGAGUUGGAGAAUCUGGUCCUUAAGGAUAUGUCAGAUGGCUUUAU | 0.152 ratio |
| UCUACAUAUUUUGCCUGGUGCCCAGAUGGUGAGCAUAUCUUAACAGCCACAUGUGCUCCUAGGUUACGUGUUAAUAAUGGGUAUAAGAUCUGGCAUUAUACUGGCUCUCUUUUGCAUAAG | 0.189 ratio |

Series 2 — technique: RNA Bind-n-Seq; molecule type: RNA; sample: in vitro; tested at: 365 nM; baseline: no-protein control; direction: higher = stronger binding
Target: RNA binding protein fox-1 homolog 2, RRM domain, GST-SBP tag (RBFOX2, Homo sapiens, UniProt O43251-10, residues 100-194)
Setting: natural RNA segment, single round, ends assumed
Constant ends, left off below: GGGAGUUCUACAGUCCGACGAUC … UGGAAUUCUCGGGUGCCAA
Construct (chain): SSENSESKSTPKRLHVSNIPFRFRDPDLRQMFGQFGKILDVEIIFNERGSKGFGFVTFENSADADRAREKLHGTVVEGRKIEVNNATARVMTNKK
| Strand | RBNS enrichment (R) |
| --- | --- |
| CAAAUGUAAGUCUUGGAGAAGGGUCCUUCAUGGUGUCCACAUGUGCAGGCUCAGGUAGAGGUCUCAGUGAGUGGACACAGGUAGCUGUGGGUGCCGAGAAAGGAUCUGCC | 6.76 |
| AAUUCAACCACUCUCCUAAAAUGGUGUUUAAAUAUUUUGUAGGGCAGAAUAUGCAUAUUGCCUGUUAGCAAGUAAUAAUUCAUUCUCAUAGAGAAAUGGGUUUUUACCCA | 0.689 |
| GUACACGCAUCCAGCAAGCACUUGACAAGGUUCCACAGGCCUAGAGAUUUUCUUCUGAGAAGAAUUUGUGUUUAAUUUUUGAUACCAACACUGAACAUUCAUCAGGGAAC | 0.737 |
| ACUACUUGAUCAUUAUAUCAAGUGUAUUUUUGUACAUAAUAUAUAUUGGUUAGAAAAAAAUAGAUUGUCUAUUGAAAGAAAUUCUCUCUCUGCAGUAGAUUAUAUUUAUC | 0.679 |
| GGUUGACAUUUGAUGACAGGAAGCAAUCAUGACUCUUCAAGUGAGCUCACAGAAACCUUUCAUGUUGUCUGUUUCCAAAAUGGAUUCAAUAAACAACAUUUUGUCCAUGU | 0.309 |
| UAUCACUCAAUUUUAAAACUAGUAAUUUACUUUGGCUCAGAAAUGUACUAUAUUUAUAAUUAUUGUAUUAUUUAAAUUAAAUAGAAGGUGAUAGAACUGAUAUUUAAAAC | 0.716 |
| CAUAUACACUUGGAUCUCUGAGAGCAGAAACCCAACUCUCACUAGACAUACCUGUGAUGGAACACACAAACAGACACGCACCAUGGGGGGUGGCCCACAAAGCCUUACAC | 0.43 |
| UGGCACAGUGAUGGCCUGUGUCACCGUGUAGUGUCAUAGGCCAUCACUGUGCCAGAGCAAGCACGCUGAGAAGGCUAGUCUCCAUAGUUGAUGGUUAAUGUUACUUCCAC | 1.29 |
| GCAUUAUAGCUUUUGAAGAAAGGCCAGUGAUCCAGCAAAGGGGGAAAAAUAUGCAUUUCACCCCACAUGACUAGGAAUCCACAUCAGAAUGAUACAGAGUUAGCAGGUUU | 0.594 |

Series 3 — technique: RNAcompete; molecule type: RNA; sample: in vitro; tested at: 20 nM; setting: 7-mer, probes averaged, single round; baseline: mean of 7-mers; direction: higher = stronger binding
Target: PABPC1L2, full length, GST fusion (mouse, UniProt A0ABA7IW68)
Residues (chain): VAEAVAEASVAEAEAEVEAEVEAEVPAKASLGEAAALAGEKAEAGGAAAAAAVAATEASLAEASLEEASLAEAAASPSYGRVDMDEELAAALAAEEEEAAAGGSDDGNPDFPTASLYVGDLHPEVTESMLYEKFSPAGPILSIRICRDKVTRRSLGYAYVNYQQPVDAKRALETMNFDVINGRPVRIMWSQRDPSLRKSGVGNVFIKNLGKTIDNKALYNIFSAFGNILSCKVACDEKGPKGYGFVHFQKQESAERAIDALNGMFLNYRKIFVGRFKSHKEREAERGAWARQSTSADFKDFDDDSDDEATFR
| Strand | 7-mer Z-score |
| --- | --- |
| ACUGGAC | 0.00979 |
| ACCUGCA | -0.237 |
| CGUGUUU | -0.458 |
| UACUCAU | -0.3 |
| AUCUGGA | 0.000733 |
| UCACCAA | -0.0246 |
| UCCGAGC | -0.106 |
| AAUACCU | 0.119 |
| ACGCUUC | -0.257 |
| AUUCGUU | -0.378 |
| CAGCUGU | -0.148 |
| ACGAAAC | 0.398 |
| UUACACA | -0.197 |
| GCCUGAA | -0.106 |
| CGCAAGG | -0.199 |
| CAUUAGG | -0.11 |
| CUCGAGC | -0.356 |
| CCUACAA | -0.05 |
| AAACGUC | 0.51 |

Series 4 — technique: RNA Bind-n-Seq; molecule type: RNA; sample: in vitro; tested at: 200 nM; setting: whole 134-nt RNA, ends assumed; together with: 150 mM LiCl; baseline: input library; direction: higher = stronger binding; all molecules: 7-deaza-guanosine replaces G
Target: Ras GTPase-activating protein-binding protein 1, full length (G3BP1, Homo sapiens, UniProt Q13283)
UniProt Q13283, sequence (whole entry, looked up): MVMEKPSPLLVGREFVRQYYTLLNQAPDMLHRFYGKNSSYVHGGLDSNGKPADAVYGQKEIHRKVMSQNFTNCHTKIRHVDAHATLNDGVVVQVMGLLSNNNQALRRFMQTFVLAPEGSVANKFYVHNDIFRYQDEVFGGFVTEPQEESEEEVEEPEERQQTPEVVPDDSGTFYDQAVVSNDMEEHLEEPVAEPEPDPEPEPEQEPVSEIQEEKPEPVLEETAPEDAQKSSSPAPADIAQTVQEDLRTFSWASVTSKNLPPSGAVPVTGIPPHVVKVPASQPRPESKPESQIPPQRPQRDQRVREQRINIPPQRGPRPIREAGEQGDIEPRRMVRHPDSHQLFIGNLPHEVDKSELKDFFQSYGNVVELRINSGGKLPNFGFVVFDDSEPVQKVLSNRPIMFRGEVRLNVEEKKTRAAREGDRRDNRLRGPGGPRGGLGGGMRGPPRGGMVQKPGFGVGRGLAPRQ
Constant ends, left off below: GGGAGUUCUACAGUCCGACGAUC … UGGAAUUCUCGGGUGUCAAGG
| Strand | log2 enrichment |
| --- | --- |
| CCUCAAGUCCUGUGCUACACAUCGUAUGUACCGAAUCGGGGAGGGGAGGAGGAAAGUAUUAUGUUACGCCGUUCGGAUCUGCACUUCCAG | -0.208 |
| CUCAAGUCCUGUGCUACACAUCGUAUGUACCGAAUCGGAAAAAGGAGGUUUGGAAAGUAUUAUGUUACGCCGUUCGGAUCUGCACUUCCA | -0.125 |
| UCCUGUGCUACACAUCGUAUGUACCGAAUCGGGAAAAAAGGGAAAAAAGGGAAAAAAGGGAAAGUAUUAUGUUACGCCGUUCGGAUCUGC | 0.269 |
| ACCAUGCAGGUGGGCAUCUUUGGGAAGUGGGGCAAGGGGGGGAUAGGGAGGGGGGUAACACUUUCGGAACAGGUGGUCCCAGGUCGUUUC | -0.0314 |
| AGUCCUGUGCUACACAUCGUAUGUACCGAAUCGGGCCCCCGGCCCCCGGGCCCCCGGGAAAGUAUUAUGUUACGCCGUUCGGAUCUGCAC | -0.953 |
| GUCCUGUGCUACACAUCGUAUGUACCGAAUCGGUUUUUUGGUUUUUUGGUUUUUUGGGGAAAGUAUUAUGUUACGCCGUUCGGAUCUGCA | -1.17 |
| CCUGUGCUACACAUCGUAUGUACCGAAUCGGGCCCCCCGGGGCCCCCCGGGGCCCCCCGGGAAAGUAUUAUGUUACGCCGUUCGGAUCUG | -2.09 |
| UGGGAGGUGGAUUUUGUUUAUUUUUUUAGCUCAUUUCCAGGGGUGGGAAUUUUUUUUUAAUAUGUGUCAUGAAUAAAGUUGUUUUGGAAA | -0.32 |
| AAGUCCUGUGCUACACAUCGUAUGUACCGAAUCGGGGUUUGGGGUUUGGGUUUGGGGAAAGUAUUAUGUUACGCCGUUCGGAUCUGCACU | -0.00838 |
| CCUGUGCUACACAUCGUAUGUACCGAAUCGGGGAAAGGGGAAAAAGGGGAAAAAAAGGGGAAAGUAUUAUGUUACGCCGUUCGGAUCUGC | 0.894 |
| CACAGACAACACGCACCCACACAGACACAGAGGGAAGGGGUUGGGAUGGGGACAGGGUGCACAGCAGGGCGGGGUUGGACCCCAGCCCCU | 0.878 |

For quick reference, copied from above (series 3):
| Strand | 7-mer Z-score |
| --- | --- |
| CAUUAGG | -0.11 |
| UACUCAU | -0.3 |
| GCCUGAA | -0.106 |
| CGCAAGG | -0.199 |
| ACUGGAC | 0.00979 |
| CGUGUUU | -0.458 |
| AAACGUC | 0.51 |
| ACGCUUC | -0.257 |
